Assay results gathered from unrelated publications.
Each line is one published result; not all experiments were run side by side.
Target: Serine/threonine-protein kinase TBK1 (TBK1, Homo sapiens, UniProt Q9UHD2)
Sequence (Q9UHD2 1-729, as in one of the studies): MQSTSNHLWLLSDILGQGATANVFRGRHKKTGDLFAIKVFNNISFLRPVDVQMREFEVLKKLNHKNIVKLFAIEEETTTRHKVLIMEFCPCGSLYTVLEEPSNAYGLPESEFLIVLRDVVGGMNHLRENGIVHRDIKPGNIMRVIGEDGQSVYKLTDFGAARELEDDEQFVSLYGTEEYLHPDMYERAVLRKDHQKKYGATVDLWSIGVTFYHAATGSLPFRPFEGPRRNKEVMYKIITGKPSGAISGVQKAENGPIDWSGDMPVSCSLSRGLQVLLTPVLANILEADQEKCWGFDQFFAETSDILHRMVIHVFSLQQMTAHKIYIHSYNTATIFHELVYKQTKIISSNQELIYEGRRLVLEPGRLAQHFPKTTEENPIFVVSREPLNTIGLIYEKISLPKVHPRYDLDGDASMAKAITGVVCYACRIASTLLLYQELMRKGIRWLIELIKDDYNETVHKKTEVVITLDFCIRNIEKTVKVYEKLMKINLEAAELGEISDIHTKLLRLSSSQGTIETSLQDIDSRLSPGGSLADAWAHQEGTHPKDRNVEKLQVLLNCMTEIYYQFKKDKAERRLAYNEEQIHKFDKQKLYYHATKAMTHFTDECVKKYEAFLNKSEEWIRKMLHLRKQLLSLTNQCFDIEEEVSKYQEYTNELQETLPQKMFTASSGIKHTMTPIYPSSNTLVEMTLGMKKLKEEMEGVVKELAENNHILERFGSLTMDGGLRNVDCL

C=CC(=O)N1CCCC(n2c(=O)c3ncccc3n(Cc3ccc(Oc4ccccc4)cc3)c2=O)C1 (centres unmarked)
remaining binding (cell-free assay, competition with immobilised ligand; 1 µM): 98%

COc1ccc(NC(=O)Nc2ccc3c(c2)C(=O)N(C(C)CO)CC(C)C(CN(C)Cc2ccc4c(c2)OCO4)O3)cc1 (centres unmarked)
remaining activity (kinase activity, KinaseProfiler; 0.03 µM, species human; relative to: control): 101%

Cc1ccc(C(=O)Nc2ccc(CN3CCN(C)CC3)c(C(F)(F)F)c2)cc1C#Cc1cnc2cccnn12
Hill slope (target engagement, NanoBRET; human cells): -0.505

Cc1cccc(O[C@H]2CCC[C@@H](C(C)CNCc3ccncc3)C2)c1 (relative stereo)
inhibition (enzyme activity, inhibitor; 1 µM): -2%

CCn1cc(C(=O)O)c(=O)c2c(N)c(F)c(NC3CCCCC3)cc21
inhibition (kinase activity; 0.1 µM, together with: ATP at Km): -13.8%

O=C=[N][Ru-4]123([n]4c5ccc(O)cc5c5c6c(c7cc(F)c[n+]1c7c54)C(=O)NC6=O)[S+]1CC[S+]2CC[S+]3CC1 (centres unmarked)
remaining activity (enzyme activity; 100 nM, human enzyme, together with: 10 µM ATP; relative to: untreated): 90%

Cc1cccc(-c2ccc3nc(NC(=O)C4CCCO4)nn3c2)c1 (centres unmarked)
remaining activity (enzyme activity, Dundee kinase panel; 10 µM): 102%

CS(=O)(=O)Nc1cccc(-c2csc3cnc(Nc4ccc(N5CCN(CCCCCOc6cccc7c6C(=O)N(C6CCC(=O)NC6=O)C7=O)CC5)cc4)nc23)c1 (centres unmarked)
inhibition (probe labelling, inhibitor, KiNativ chemoproteomics; MOLT-4; 1 µM): 92.2%

C=CC(=O)Nc1cccc(-c2cnc3[nH]cc(C(=O)NC(C)(C)C)c3n2)c1
inhibition (enzyme activity, inhibitor; 0.1 µM): 20%

Cn1cc(-c2cnc3ccc(NC(=O)Nc4ccc5sccc5c4)cc3n2)cn1
inhibition (kinase binding, KiNativ profiling, item: Lys1 peptide; PANC-1 lysate; 2.5 µM): 13.1%

Nc1nc(Nc2ccccc2)sc1C(=O)c1ccccc1
remaining activity (enzyme activity, inhibitor; 10 µM): 53%

O=C(Nc1ccc(Oc2ncnc3[nH]cc(-c4ccccc4)c23)c(F)c1)c1c2n(n(-c3cc(F)ccc3F)c1=O)CCCC2
inhibition (enzyme activity, inhibitor; 0.5 µM): 3%

COc1cc(Nc2nc(C)cc(-c3cnn4nc(OC)ccc34)n2)cc(C(F)(F)F)c1
remaining binding (binding, competition with immobilised ligand; 1 µM): 80%

c1ccc2c(Nc3cc(C4CCC4)[nH]n3)nc(Nc3ccc4nc[nH]c4c3)nc2c1
remaining activity (enzyme activity, inhibitor; 0.25 µM): 12%

Cc1cccc(-c2ccc3nc(NC(=O)C4CCCCC4)nn3c2)c1
remaining activity (enzyme activity, Dundee kinase panel; 10 µM): 101%

CN1CC[C@@H](COc2cnc(C#N)cc2-c2ccn3nc(NC(=O)C4CC4)cc3c2)C1
inhibition (enzyme activity, inhibitor; 1 µM): -12%

NC(=O)[C@@H](O)C[C@H]1CCc2sc3ncnc(O[C@H]4CC[C@H](N5CCOCC5)CC4)c3c21
inhibition (enzyme activity, inhibitor; 10 µM): 3%

COc1c(OCCCN2CCOCC2)ccc2c1N=C(NC(=O)c1cnc(N)nc1)N1CCN=C21
remaining activity (kinase activity, inhibitor; 1 µM; relative to: untreated control): 91%

CCN1CCN(Cc2ccc(C(=O)Nc3ccc(C)c(NCc4cnc5[nH]ccc5c4OC)c3)cc2C(F)(F)F)CC1
remaining binding (binding, competition with immobilised ligand; 1 µM): 90%

O=C(Cc1ccc(OCc2ccccc2)cc1)NC1(C(=O)O)CCN(C(=O)c2ccc(-c3cccc(Cl)c3)cc2)CC1
activity vs control (enzyme activity, inhibitor; 10 µM): 106%
